Results pooled from the literature.
Each line is one published result; not all experiments were run side by side. ± gives the spread as reported.
Organism: Plasmodium falciparum

Structure (SMILES) = C[C@@H]1CC[C@H]2[C@@H](C)C(=O)O[C@@H]3O[C@@]4(C)CC[C@@H]1[C@]32OO4; effect on = parasite growth; strain = NF54; time = 72 h; setting = blood stage; IC50 = 11.1 nM
Structure (SMILES) = COC1(C)CC2C=CC3C(C)C=CC=CC(C)OC(=O)C(C)C(=O)C(Cl)(Cl)C(=O)C3C2C(C)C1O (centres unmarked); effect on = parasite growth; technique = ELISA; strain = DD2; setting = drug-resistant strain, blood stage; IC50 = > 7810 nM
Structure (SMILES) = COc1ccc2c(c1)C1CC(C)(N2)c2c(C)nc3ccc(OC)cc3c21 (centres unmarked); effect on = parasite growth; mode = inhibitor; technique = SYBR Green I; strain = Cam3.1 R539T (MRA-1240); IC50 = 6.7 nM
Structure (SMILES) = Nc1ncnc2c1c(-c1ccc(Oc3ccccc3)cc1)cn2C1CCCC1; effect on = growth; technique = SYBR Green; strain = FVO; time = 36 h; IC50 = 28000 nM
Structure (SMILES) = O=C1C(=O)c2[nH]cc3c2C(=C1I)NCC3; effect on = parasite growth; technique = SYBR Green; strain = 3D7; setting = blood stage; IC50 = 8150 nM
Structure (SMILES) = CCOC1C(C)C2C(C=CC3C(C)C=CC=CC(C)OC(=O)C(C)C(=O)C(Cl)(Cl)C(=O)C32)CC1(C)O (centres unmarked); effect on = parasite growth; technique = ELISA; strain = DD2; setting = drug-resistant strain, blood stage; IC50 = > 11000 nM
Structure (SMILES) = COc1ccc2nc3cc(Cl)ccc3c(NCCNC(C)=C3C(=O)C=C4Oc5c(C(C)=O)c(O)c(C)c(O)c5C4(C)C3=O)c2c1 (centres unmarked); effect on = parasite growth; technique = [3H]hypoxanthine incorporation; strain = K1; setting = erythrocytic stages; IC50 = 48 nM
Structure (SMILES) = C[C@H]1[C@H](OC(=O)CCC(=O)OCc2cn(-c3cc4ccc(O)cc4oc3=O)nn2)O[C@@H]2O[C@@]3(C)CC[C@H]4[C@H](C)CC[C@@H]1[C@@]24OO3; effect on = parasite growth; strain = 3D7; time = 24 h; setting = blood stage; IC50 = 101 nM
Structure (SMILES) = O=C1C(NCCc2ccc(O)c(Br)c2)=CC2=NCCc3c[nH]c1c32; effect on = parasite growth; technique = SYBR Green; strain = 3D7; setting = blood stage; IC50 = 284 nM
Structure (SMILES) = COC1C(C)C2C(C=CC3C(C)C=CC=CC(C)OC(=O)C(C)C(=O)C(Cl)(Cl)C(=O)C32)CC1(C)O (centres unmarked); effect on = parasite growth; technique = ELISA; strain = DD2; setting = drug-resistant strain, blood stage; IC50 = > 11000 nM
Structure (SMILES) = C[OH+][Cu-2]12[O]C(c3cn(-c4ccccc4)nc3-c3ccccc3)=N[N+]1=C(C)c1c(cc(C)oc1=O)[O]2 (centres unmarked); effect on = parasite growth; technique = SYBR Green I fluorescence; strain = 3D7; time = 72 h; IC50 = 9960 nM
Structure (SMILES) = CC(=O)c1c(O)c(C)c(O)c2c1OC1=CC(=O)C(=C(C)NCCCCOC3OC4OC5(C)CCC6C(C)CCC(C3C)C46OO5)C(=O)C12C (mixture of isomers); effect on = parasite growth; technique = 3H-hypoxanthine incorporation; strain = K1; setting = asexual erythrocytic stages; IC50 = 0.008 µg/mL
Structure (SMILES) = C[C@H]1[C@@H](OCc2cn(-c3cc4ccc(O)cc4oc3=O)nn2)O[C@@H]2O[C@@]3(C)CC[C@H]4[C@H](C)CC[C@@H]1[C@@]24OO3; effect on = parasite growth; strain = 3D7; time = 72 h; setting = blood stage; IC50 = 0.8 nM
Structure (SMILES) = O[C@]12C=C(c3nccc4c3[nH]c3ccccc34)[C@@H]3CCN(CCCC/C=C\CC1)C[C@@]31C[C@@H]3/C=C\CCCCN3[C@H]12; technique = parasite LDH; strain = D6, chloroquine-sensitive; time = 72 h; IC50 = 0.0208 ± 0.00075 µg/mL
Structure (SMILES) = COc1cccc2c(-c3ccc(O)c4c3CCNC4)ccc(O)c12; effect on = parasite growth; technique = SYBR Green; strain = W2; setting = drug-resistant strain, blood stage; IC50 = 800 nM
Structure (SMILES) = CCN(CC)CCCC(C)Nc1ccnc2cc(Cl)ccc12 (centres unmarked); effect on = parasite growth; strain = Dd2 kelch13 R539T, artemisinin resistant; time = 72 h; setting = ring stage; IC50 = 68.52 ± 0.09 nM
Structure (SMILES) = CC(=O)c1c(O)c(C)c(O)c2c1OC1=CC(=O)C(=C(C)NCCCC(=O)OC3OC4OC5(C)CCC6C(C)CCC(C3C)C46OO5)C(=O)C12C (centres unmarked); effect on = parasite growth; technique = [3H]hypoxanthine incorporation; strain = K1; setting = erythrocytic stages; IC50 = 1.4 nM
Structure (SMILES) = Cc1nc2ccc(F)cc2c2c1C1(C)CC2c2cc(F)ccc2N1 (centres unmarked); effect on = parasite growth; mode = inhibitor; technique = SYBR Green I; strain = Cam3.1 R539T (MRA-1240); IC50 = 181 nM
Structure (SMILES) = COC1=CC2=NCCc3c[nH]c(c32)C1=O; effect on = parasite growth; technique = SYBR Green; strain = 3D7; setting = blood stage; IC50 = 911 nM
Structure (SMILES) = CC(F)(F)CCCNC[C@H](O)c1cc(Cl)cc2c1-c1ccc(Cl)cc1C2; effect on = parasite growth; technique = SYBR Green; strain = W2; time = 48 h; setting = drug-resistant strain, blood stage; IC50 = 2 nM
Structure (SMILES) = COc1ccc2cc1Oc1cc3c(cc1OC)CCN(C)C3Cc1ccc(cc1)Oc1c(O)c(OC)cc3c1C(C2)N(C)CC3 (centres unmarked); effect on = parasite growth; technique = stage-specific treatment; time = 12 h; setting = early to late ring stage; IC50 = 2910 ± 230 nM
Structure (SMILES) = CC1=C[C@@H](C)[C@H]2[C@@H]3C(=O)C(Cl)(Cl)C(=O)[C@H](C)C(=O)O[C@@H](C)/C=C/C=C\[C@@H](C)[C@@H]3C=C[C@@H]2C1; effect on = parasite growth; technique = ELISA; strain = DD2; setting = drug-resistant strain, blood stage; IC50 = 16 nM
Structure (SMILES) = COCCN(C)C(C)C(=O)NC(Cc1ccc(-c2ccccc2)cc1)B(O)O (centres unmarked); effect on = parasite growth; strain = Cam3.II β5 A20S WLL-resistant; time = 72 h; IC50 = 439 ± 47 nM
Structure (SMILES) = CC(=O)c1c(O)c(C)c(O)c2c1OC1=CC(=O)C(=C(C)NNc3ccnc4cc(Cl)ccc34)C(=O)C12C (centres unmarked); effect on = parasite growth; technique = [3H]hypoxanthine incorporation; strain = K1; setting = erythrocytic stages; IC50 = 2120 nM
Structure (SMILES) = CC1CCC(C(C)(C)C(=O)Nc2ccc(Oc3ccccc3)cc2)CC1 (centres unmarked); effect on = parasite growth; technique = SYBR Green; strain = FCR3; setting = blood stage; IC50 = 26 nM
Structure (SMILES) = C[C@@H]1C(=O)O[C@@H](C)/C=C/C=C\[C@@H](C)[C@@H]2C=C[C@@H]3C[C@@]4(C)O[C@H]4[C@@H](C)[C@H]3[C@@H]2C(=O)C(Cl)(Cl)C1=O; effect on = parasite growth; technique = ELISA; strain = DD2; setting = drug-resistant strain, blood stage; IC50 = 154 nM
Structure (SMILES) = COc1cc2c3cc1Oc1cc(ccc1O)CC1c4c(cc(OC)c(O)c4Oc4ccc(cc4)CC3N(C)CC2)CCN1C (centres unmarked); effect on = parasite growth; technique = stage-specific treatment; time = 12 h; setting = early to late schizont stage; IC50 = 5340 ± 330 nM
Structure (SMILES) = CN1CCCCC1C(=O)NC(Cc1ccc(-c2ccccc2)cc1)B(O)O (centres unmarked); technique = ex vivo; strain = Brazilian field isolates; setting = median; IC50 = 18 nM
Structure (SMILES) = C[OH+][Cu-2]12[O]C(c3cn(-c4ccccc4)nc3-c3ccc(Cl)cc3)=N[N+]1=C(C)c1c(cc(C)oc1=O)[O]2 (centres unmarked); effect on = parasite growth; technique = SYBR Green I fluorescence; strain = 3D7; time = 72 h; IC50 = 28200 nM
Structure (SMILES) = CCCCCc1ccc(Cc2cc(/C=C/C(=O)OC)cc3cccnc23)cc1; effect on = parasite growth; mode = inhibitor; technique = SYBR Green I; strain = Cam3.1 R539T (MRA-1240); IC50 = 10600 nM
Structure (SMILES) = COCCN(C)CC(=O)NC(Cc1ccc(-c2ccccc2)cc1)B(O)O (centres unmarked); technique = [3H]-hypoxanthine incorporation; strain = Dd2, DSM265-resistant; IC50 = 143 ± 41 nM
Structure (SMILES) = C[C@H]1[C@H](OC(=O)CCC(=O)OCc2nnn(-c3cc4ccc(O)cc4oc3=O)c2COC(=O)CCC(=O)O[C@@H]2O[C@@H]3O[C@@]4(C)CC[C@H]5[C@H](C)CC[C@@H]([C@H]2C)[C@@]35OO4)O[C@@H]2O[C@@]3(C)CC[C@H]4[C@H](C)CC[C@@H]1[C@@]24OO3; effect on = parasite growth; strain = 3D7; time = 72 h; setting = blood stage; IC50 = 5.3 nM
Structure (SMILES) = O[Si](CCCN1CCCCC1)(c1ccc(F)cc1)C1CCCCC1 (centres unmarked); effect on = parasite growth; technique = SYBR Green; strain = DD2; setting = blood stage; IC50 = 22 nM
Structure (SMILES) = C[C@H]1[C@@H](OCc2nnn(-c3cc4ccc(O)cc4oc3=O)c2CO[C@H]2O[C@@H]3O[C@@]4(C)CC[C@H]5[C@H](C)CC[C@@H]([C@H]2C)[C@@]35OO4)O[C@@H]2O[C@@]3(C)CC[C@H]4[C@H](C)CC[C@@H]1[C@@]24OO3; effect on = parasite growth; strain = 3D7; time = 72 h; setting = blood stage; IC50 = 0.7 nM
Structure (SMILES) = CC1=N[C@H](C)Cc2c(-c3ccc(C)cc3)ccc(O)c21; effect on = parasite growth; technique = SYBR Green; strain = W2; setting = drug-resistant strain, blood stage; IC50 = 960 nM

Excerpt of the above:
Structure (SMILES) = CCN(CC)CCCC(C)Nc1ccnc2cc(Cl)ccc12 (centres unmarked); effect on = parasite growth; strain = Dd2 kelch13 R539T, artemisinin resistant; time = 72 h; setting = ring stage; IC50 = 68.52 ± 0.09 nM
Structure (SMILES) = CC(=O)c1c(O)c(C)c(O)c2c1OC1=CC(=O)C(=C(C)NCCCC(=O)OC3OC4OC5(C)CCC6C(C)CCC(C3C)C46OO5)C(=O)C12C (centres unmarked); effect on = parasite growth; technique = [3H]hypoxanthine incorporation; strain = K1; setting = erythrocytic stages; IC50 = 1.4 nM
Structure (SMILES) = Cc1nc2ccc(F)cc2c2c1C1(C)CC2c2cc(F)ccc2N1 (centres unmarked); effect on = parasite growth; mode = inhibitor; technique = SYBR Green I; strain = Cam3.1 R539T (MRA-1240); IC50 = 181 nM
